Measured values collected from several papers.
Numbered parts are unrelated; each lists some results of a single study.
Chain of UniProt P10721 (whole entry, unmodified, looked up): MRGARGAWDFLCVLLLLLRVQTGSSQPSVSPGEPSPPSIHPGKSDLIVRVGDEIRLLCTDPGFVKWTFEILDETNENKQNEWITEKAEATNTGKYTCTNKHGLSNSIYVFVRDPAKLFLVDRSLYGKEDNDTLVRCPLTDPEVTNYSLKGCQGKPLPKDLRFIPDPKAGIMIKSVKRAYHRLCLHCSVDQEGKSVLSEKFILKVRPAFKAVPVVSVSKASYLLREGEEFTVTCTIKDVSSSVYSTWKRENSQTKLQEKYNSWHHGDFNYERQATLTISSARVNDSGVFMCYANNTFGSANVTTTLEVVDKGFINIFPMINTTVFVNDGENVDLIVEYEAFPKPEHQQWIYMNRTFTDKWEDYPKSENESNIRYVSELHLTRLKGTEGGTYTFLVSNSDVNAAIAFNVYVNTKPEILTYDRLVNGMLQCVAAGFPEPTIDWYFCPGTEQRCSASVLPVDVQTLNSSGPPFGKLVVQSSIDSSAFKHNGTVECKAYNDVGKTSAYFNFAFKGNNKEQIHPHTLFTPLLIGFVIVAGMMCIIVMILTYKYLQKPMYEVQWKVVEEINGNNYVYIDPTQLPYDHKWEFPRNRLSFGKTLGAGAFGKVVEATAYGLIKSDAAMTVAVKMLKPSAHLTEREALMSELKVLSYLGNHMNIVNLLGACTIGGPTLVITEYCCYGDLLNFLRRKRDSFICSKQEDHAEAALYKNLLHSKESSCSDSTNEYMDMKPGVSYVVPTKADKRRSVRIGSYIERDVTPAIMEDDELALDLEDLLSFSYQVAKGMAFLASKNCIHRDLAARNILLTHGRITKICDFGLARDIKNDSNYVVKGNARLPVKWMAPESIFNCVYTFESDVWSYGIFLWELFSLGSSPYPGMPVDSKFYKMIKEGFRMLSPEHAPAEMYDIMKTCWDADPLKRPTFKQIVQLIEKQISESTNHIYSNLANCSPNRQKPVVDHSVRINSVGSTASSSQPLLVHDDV
Chain of UniProt Q38828 (whole entry, looked up): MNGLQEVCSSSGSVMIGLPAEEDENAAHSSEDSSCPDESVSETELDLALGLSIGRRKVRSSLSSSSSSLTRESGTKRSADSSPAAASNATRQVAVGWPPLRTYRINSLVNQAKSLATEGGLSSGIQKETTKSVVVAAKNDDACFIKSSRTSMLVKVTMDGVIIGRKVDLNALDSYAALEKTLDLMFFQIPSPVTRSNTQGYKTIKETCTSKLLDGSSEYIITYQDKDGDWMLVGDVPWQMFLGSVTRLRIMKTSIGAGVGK
Chain of UniProt P42684 (whole entry, looked up): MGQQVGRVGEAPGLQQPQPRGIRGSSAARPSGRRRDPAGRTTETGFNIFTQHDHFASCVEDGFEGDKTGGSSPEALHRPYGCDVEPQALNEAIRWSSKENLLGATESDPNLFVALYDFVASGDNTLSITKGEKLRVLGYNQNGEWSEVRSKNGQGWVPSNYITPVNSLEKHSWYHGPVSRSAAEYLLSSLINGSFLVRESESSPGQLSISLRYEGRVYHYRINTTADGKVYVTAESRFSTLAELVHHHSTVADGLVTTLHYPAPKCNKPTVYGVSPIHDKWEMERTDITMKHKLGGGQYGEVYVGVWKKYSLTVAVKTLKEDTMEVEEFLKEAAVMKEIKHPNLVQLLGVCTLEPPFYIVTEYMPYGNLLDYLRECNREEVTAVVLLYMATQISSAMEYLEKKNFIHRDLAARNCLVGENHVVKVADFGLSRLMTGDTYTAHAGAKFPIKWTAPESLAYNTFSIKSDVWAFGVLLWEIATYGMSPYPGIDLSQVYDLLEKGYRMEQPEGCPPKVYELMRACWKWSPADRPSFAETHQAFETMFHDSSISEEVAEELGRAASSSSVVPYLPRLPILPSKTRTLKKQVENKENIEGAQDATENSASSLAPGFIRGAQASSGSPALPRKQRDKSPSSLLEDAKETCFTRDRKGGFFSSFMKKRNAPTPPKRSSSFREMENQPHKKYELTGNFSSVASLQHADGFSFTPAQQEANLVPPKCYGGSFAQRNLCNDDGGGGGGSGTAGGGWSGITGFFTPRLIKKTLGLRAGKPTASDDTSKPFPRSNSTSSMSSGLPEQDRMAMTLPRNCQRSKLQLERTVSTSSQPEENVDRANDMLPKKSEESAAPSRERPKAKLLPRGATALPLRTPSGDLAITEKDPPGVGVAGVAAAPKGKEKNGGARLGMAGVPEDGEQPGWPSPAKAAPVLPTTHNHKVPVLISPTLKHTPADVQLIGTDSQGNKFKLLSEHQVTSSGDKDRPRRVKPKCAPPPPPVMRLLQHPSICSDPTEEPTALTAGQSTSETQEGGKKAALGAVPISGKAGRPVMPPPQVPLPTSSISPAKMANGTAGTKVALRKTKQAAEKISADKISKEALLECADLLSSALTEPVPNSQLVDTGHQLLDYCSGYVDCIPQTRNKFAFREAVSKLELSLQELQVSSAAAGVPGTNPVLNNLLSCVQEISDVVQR
Chain of UniProt P49137 (whole entry, looked up): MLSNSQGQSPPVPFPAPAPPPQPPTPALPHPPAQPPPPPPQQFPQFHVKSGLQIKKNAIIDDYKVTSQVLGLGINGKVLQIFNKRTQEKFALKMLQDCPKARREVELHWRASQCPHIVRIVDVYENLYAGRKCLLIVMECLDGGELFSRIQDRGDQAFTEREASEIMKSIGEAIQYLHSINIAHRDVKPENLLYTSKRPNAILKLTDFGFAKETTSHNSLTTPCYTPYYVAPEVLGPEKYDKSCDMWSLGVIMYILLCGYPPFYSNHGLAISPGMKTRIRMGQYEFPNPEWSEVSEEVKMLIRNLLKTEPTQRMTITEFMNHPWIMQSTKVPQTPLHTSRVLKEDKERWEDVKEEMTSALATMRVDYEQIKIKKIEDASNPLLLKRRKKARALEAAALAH
Chain of UniProt Q9HC98 (whole entry, looked up): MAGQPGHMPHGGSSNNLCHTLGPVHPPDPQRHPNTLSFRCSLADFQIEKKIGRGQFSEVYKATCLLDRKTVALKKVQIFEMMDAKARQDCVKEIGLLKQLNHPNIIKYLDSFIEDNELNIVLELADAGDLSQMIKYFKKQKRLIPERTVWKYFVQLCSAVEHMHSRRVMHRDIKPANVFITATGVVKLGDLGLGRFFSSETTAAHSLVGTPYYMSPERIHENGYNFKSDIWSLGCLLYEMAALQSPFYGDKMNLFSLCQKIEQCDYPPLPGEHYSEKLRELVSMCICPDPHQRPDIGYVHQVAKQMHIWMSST
Chain of UniProt Q15746 (whole entry, looked up): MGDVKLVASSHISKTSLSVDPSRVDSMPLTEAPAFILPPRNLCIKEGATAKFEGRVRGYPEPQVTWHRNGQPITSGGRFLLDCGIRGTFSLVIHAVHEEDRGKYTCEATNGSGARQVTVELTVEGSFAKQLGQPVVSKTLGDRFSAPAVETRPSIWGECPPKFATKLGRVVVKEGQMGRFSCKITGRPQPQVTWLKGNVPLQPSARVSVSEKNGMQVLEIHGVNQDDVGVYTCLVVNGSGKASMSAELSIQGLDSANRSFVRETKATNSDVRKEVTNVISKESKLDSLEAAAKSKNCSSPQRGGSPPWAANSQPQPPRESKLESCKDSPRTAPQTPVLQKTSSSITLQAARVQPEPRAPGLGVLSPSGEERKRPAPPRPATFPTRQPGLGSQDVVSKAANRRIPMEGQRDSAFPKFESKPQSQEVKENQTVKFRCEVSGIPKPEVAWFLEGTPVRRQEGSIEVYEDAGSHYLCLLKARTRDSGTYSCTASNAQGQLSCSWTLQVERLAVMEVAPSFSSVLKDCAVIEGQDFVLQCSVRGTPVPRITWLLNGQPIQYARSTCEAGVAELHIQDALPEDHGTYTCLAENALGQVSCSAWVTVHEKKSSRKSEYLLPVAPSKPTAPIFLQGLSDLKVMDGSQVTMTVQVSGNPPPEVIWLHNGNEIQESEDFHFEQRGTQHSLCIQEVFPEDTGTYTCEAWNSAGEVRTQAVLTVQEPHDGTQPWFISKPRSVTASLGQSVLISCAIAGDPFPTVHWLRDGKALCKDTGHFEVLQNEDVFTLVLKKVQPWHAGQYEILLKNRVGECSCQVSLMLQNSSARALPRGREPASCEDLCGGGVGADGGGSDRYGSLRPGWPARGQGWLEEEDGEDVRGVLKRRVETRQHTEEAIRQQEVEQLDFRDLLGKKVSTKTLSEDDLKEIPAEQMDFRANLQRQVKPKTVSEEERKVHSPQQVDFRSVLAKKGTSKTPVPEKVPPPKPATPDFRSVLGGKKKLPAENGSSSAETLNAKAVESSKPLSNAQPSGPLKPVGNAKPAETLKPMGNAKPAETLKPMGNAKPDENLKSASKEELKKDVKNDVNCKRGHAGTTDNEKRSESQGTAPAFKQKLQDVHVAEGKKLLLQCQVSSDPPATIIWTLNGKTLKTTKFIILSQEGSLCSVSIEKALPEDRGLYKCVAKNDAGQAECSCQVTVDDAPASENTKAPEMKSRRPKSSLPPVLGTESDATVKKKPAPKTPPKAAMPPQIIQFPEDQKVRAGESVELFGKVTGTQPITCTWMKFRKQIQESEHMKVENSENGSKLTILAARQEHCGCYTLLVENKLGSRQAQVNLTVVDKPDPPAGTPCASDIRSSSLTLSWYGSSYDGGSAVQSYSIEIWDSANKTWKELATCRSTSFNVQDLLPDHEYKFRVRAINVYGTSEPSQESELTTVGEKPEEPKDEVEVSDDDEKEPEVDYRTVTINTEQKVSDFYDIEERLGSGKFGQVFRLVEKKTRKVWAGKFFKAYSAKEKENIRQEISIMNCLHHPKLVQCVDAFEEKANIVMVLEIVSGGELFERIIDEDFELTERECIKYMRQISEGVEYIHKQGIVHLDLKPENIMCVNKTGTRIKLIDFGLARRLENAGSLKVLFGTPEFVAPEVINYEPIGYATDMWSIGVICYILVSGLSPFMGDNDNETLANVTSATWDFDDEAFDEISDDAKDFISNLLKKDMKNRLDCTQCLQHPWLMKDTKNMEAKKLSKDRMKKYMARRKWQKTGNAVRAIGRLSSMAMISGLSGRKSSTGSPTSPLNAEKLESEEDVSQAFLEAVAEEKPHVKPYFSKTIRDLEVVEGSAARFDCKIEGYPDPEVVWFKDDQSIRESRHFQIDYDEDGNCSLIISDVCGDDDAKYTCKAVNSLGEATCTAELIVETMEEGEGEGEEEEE

Set 1 — read-out: cell-free assay; technique: competition with immobilised ligand; tested at: 1 µM
Structure (SMILES): O=C(NS(=O)(=O)c1ccc(NCC2CCOCC2)c([N+](=O)[O-])c1)c1ccc(N2CCN(Cc3ccc(C(F)(F)F)cc3-c3ccc(Cl)cc3)CC2)cc1Oc1cnc2[nH]ccc2c1
target	remaining binding [%]
KIT (Homo sapiens, UniProt P10721)	100
CLK1 (Homo sapiens, UniProt P49759)	69
CIT (Homo sapiens, UniProt O14578)	91
CAMK2A (Homo sapiens, UniProt Q9UQM7)	87
EGFR (Homo sapiens, UniProt P00533, L861Q)	93
TNK1 (Homo sapiens, UniProt Q13470)	96
KIT (Homo sapiens, UniProt P10721, A829P)	99
TNIK (Homo sapiens, UniProt Q9UKE5)	100
KIT (Homo sapiens, UniProt P10721, T670I/V559D)	100
STK38 (Homo sapiens, UniProt Q15208)	90
KIT (Homo sapiens, UniProt P10721, V559D/V654A)	100
MYLK (Homo sapiens, UniProt Q15746)	65
RAF1 (Homo sapiens, UniProt P04049)	100
Ribosomal protein S6 kinase alpha-3, N-terminal kinase domain (RPS6KA3, Homo sapiens, UniProt P51812)	100
SGK3 (Homo sapiens, UniProt Q96BR1)	92

Set 2 — technique: RNA Bind-n-Seq; molecule type: RNA; sample: in vitro; tested at: 365 nM; reference: no-protein control; direction: higher = stronger binding
Target: RNA binding protein fox-1 homolog 2, RRM domain, GST-SBP tag (RBFOX2, Homo sapiens, UniProt O43251-10, residues 100-194)
Setting: natural RNA segment, single round, ends assumed
Construct (chain): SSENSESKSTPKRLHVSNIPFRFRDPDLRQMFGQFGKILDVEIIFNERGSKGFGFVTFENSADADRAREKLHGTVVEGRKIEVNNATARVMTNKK
Oligonucleotide	RBNS enrichment (R)
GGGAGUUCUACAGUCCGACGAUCAUUCUGUUUCCUGCAGUGGGAACUGGCCAUGUAGUCUUAACAGUCUUUUGUACAAAUAUCUACAAAGCAGAUAAUAUCCCUAUCCAGUGCUUGCCCUUGGAAUUGUCUCUUGGAAUUCUCGGGUGCCAA	0.36
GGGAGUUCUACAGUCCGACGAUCAAGCUACGCCGGUGGAAUGUCAGUGUGCUGCUCUGUAGGGAACUGCAGAGCUUAGAGGACUGACUGCAUCUUGUUAGGGAAGCAUCUUUGAGAUGCAGAAUUCAUCUUUUUGGAAUUCUCGGGUGCCAA	0.237
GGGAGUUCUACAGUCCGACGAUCGGCUUAUUCUCUGCUCUAUAGUUGUGAAAUGAAGAGUAAAAACAAAUUUGUUUGACUAUUUUAAAAUUAUAUUAGACCUUAAGCUGUUUUAGCAAGCAUUAAAGCAAAUGUGGAAUUCUCGGGUGCCAA	0.456
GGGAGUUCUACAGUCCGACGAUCUUUUGUGUUGAUCAUUAUUUCCAUUCUUAAUGUGAAAAAAAGUAAUUAUUUAUACUUAUUAUAAAAAGUAUUUGAAAUUUGCACAUUUAAUUGUCCCUAAUAGAAAGCCAUGGAAUUCUCGGGUGCCAA	0.491
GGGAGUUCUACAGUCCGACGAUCGACUCUGGCACCAUGCCAGCUGACUGCUACCCAGGUCAGAUUGGACUCAUGGUCAAUACCCAGCCAGUCUUCUUACAGGGACUUGAGAGGCUCAGGCUACUAUGACCAAUUGGAAUUCUCGGGUGCCAA	0.46
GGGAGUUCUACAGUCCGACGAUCCUCUUCUCAGCCUCCUCCCUCUUUUGUCCUCUUUUCCUCUCCUGCCUGAGCAGUACCAAGGUCUUACUGUCUCUAUUCCUUUCUCCAUGGCCUGCUUUGCCUGGGUUGUGUGGAAUUCUCGGGUGCCAA	1.08
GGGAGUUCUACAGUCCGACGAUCUGGAGGGGGCAGAAGAAAGAAAUAAACCUCAUCCUAUAUUUUACAAAGCAUGUGAAUUCUGGCAUUAGCUCUCAUAGGAGACCCAUGUGCUUCCUUGCUCAGUGCAAAACUGGAAUUCUCGGGUGCCAA	1.57
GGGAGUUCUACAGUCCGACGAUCCCAUGAGAUUUUUACAUGUGCAUAAGUAUUUAGCCAAUACACAUUUUGCUGACUUCUUUAACCAUUUAUAUUGUUUAAAUUAGUAAUAUCCAAUGCAGUGCACACUUUUUUGGAAUUCUCGGGUGCCAA	0.409

Set 3 — Sequence: B1 (IAA4); technique: two-hybrid; reference: out of 4 tests; direction: higher = firmer interaction
B1: IAA4 (Arabidopsis thaliana, UniProt P33077); chain MEKVDVYDELVNLKATELRLGLPGTEETVSCGKSNKRVLPEATEKEIESTGKTETASPPKAQIVGWPPVRSYRKNNVQTKKSESEGQGNYVKVSMDGAPYLRKIDLTMYKQYPELMKSLENMFKFSVGEYFEREGYKGSDFVPTYEDKDGDWMLVGDVPWEMFVSSCKRLRIMKGSEVKGLGCGGL
partner	positive tests
IAA10 (Arabidopsis thaliana, UniProt Q38828)	2
IAA34 (Arabidopsis thaliana, UniProt Q9C5X0)	4
IAA28 (Arabidopsis thaliana, UniProt Q9XFM0)	4
IAA8 (Arabidopsis thaliana, UniProt Q38826)	4
ARF11 500-622 (Arabidopsis thaliana, UniProt Q9ZPY6)	0

Set 4 — read-out: enzyme activity; action: inhibitor; tested at: 0.5 µM; reference: control
SMILES: O=C1Nc2ccc(Br)cc2/C1=C/c1cc2c([nH]1)CCCC2
target	remaining activity [%]
ARAF (Homo sapiens, UniProt P10398)	106
MAP2K2 (Homo sapiens, UniProt P36507)	92.1
ABL2 (Homo sapiens, UniProt P42684)	82.6
FRK (Homo sapiens, UniProt P42685)	91
GRK7 (Homo sapiens, UniProt Q8WTQ7)	85.2
NEK6 (Homo sapiens, UniProt Q9HC98)	103
ULK3 (Homo sapiens, UniProt Q6PHR2)	55.5
TEK (Homo sapiens, UniProt Q02763)	98.2
MAPK3 (Homo sapiens, UniProt P27361)	95
CSNK1G2 (Homo sapiens, UniProt P78368)	96.8
JAK3 (Homo sapiens, UniProt P52333)	89.3
NEK1 (Homo sapiens, UniProt Q96PY6)	94.6
MAPKAPK2 (Homo sapiens, UniProt P49137)	97.5
WEE1 (Homo sapiens, UniProt P30291)	95.9

Some of these lines once more (set 3):
partner	positive tests
IAA10 (Arabidopsis thaliana, UniProt Q38828)	2
IAA34 (Arabidopsis thaliana, UniProt Q9C5X0)	4
IAA28 (Arabidopsis thaliana, UniProt Q9XFM0)	4
IAA8 (Arabidopsis thaliana, UniProt Q38826)	4
ARF11 500-622 (Arabidopsis thaliana, UniProt Q9ZPY6)	0
